# Results collected from several papers.
# Parts stem from different laboratories: compare values within a part only.

# Set 1
# Target: Interferon regulatory factor 5, full length, phosphomimetic (IRF5, Homo sapiens, UniProt Q13568-2, residues 1-514, K96S/S451D/S453D/S456D/S462D)
# Method: protein-binding microarray
# Form: double-stranded DNA, one strand shown
# Sample: in vitro
# Concentration: 250 nM
# Setting: 60-bp whole probe
# Together with: salmon DNA 0.4 mg/ml
# Relative to: random background probes
# Direction: higher = stronger binding
# All sequences stand within: GCCTAGCAC … GTCTTGATTCGCTTGACGCTGCTG
Sequence,log fluorescence [z-score]
GACGATTTCAGACGGGAGACGTGCTAG,0.0797
TTCTCTTTCATTGCTGCCCTGTGCTAG,2.96
TTAGGTATCCATTTCCTTTAGTGCTAG,0.419
TTAGGTATCCTCTTCCTTTAGTGCTAG,0.163
TCACACCAGAGGGCGCTGTGGTGCTAG,-0.584
TTAGATCTCATTATCGATTAGTGCTAG,6.17
TGTGTTGCAGAAACGCCATGGTGCTAG,-0.0332
GACGGTTTCGGTTCGGGGACGTGCTAG,9.33
TCAGGTATCGACACTGGGTTAGTGCTA,2.07
TTAGGTATTGGGACTGGGTTAGTGCTA,-0.227
GATGAACTGAGTTTCGAGACGTGCTAG,5.06
TCTAACTTCCCAATGGTCTTGTGCTAG,0.146
TAGGTTTTCTGGTTCCCATTGTGCTAG,0.633
TCAAGGGTCTGTTTGGGACTGTGCTAG,-0.331
GTAGGACTGCTTATCCTTTAGTGCTAG,-0.448
TTAGATATCGGGTTTCGATCAGTGCTA,7.22
GACGATTTGGGGTTTCGAGACGTGCTA,1.31
TTAGATTCCAGTTTCGACTAGTGCTAG,7.71
TTAGATTTCAGTATCGGTTAGTGCTAG,9.03
GACGGACTGGGTCACGGGACGTGCTAG,-0.447
TTTCCCATGAGTCTCAAAATGTGCTAG,1.73
TTAGGTCTCCTTTTCCTTTGGTGCTAG,0.347
TTAGGCTTCGGGACTGGGTTAGTGCTA,-0.149
TTAGGTATCGGGAATCGGTTAGTGCTA,2.39
GACGAATTCAGTATCGAGACGTGCTAG,2.84

# Set 2
# Target: Fragile X messenger ribonucleoprotein 1, C-terminal low-complexity region (Fmr1, Mus musculus, UniProt P35922)
# Method: RNA Bind-n-Seq
# Form: RNA
# Sample: in vitro
# Concentration: 200 nM
# Setting: whole 134-nt RNA, ends assumed
# Together with: 150 mM KCl
# Relative to: input library
# Direction: higher = stronger binding
Sequence,log2 enrichment
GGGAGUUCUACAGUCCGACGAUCUGGCCCUGGUGGCAUGCGGGGAGGAAGAGGUGGCCUCAUGGAUCGUGGUGGUCCCGGUGGAAUGUUCAGAGGUUGCCGUGGUGGAGACAGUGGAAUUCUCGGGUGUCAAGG,-0.275
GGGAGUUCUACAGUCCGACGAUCACCAUGCAGGUGGGCAUCUUUGGGAAGUGGGGCAAGAGGGGGAUAGGGAGGGGGGUAACACUUUGGGAACAGGUGGUCCCAGGUCGUUUCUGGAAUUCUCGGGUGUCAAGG,0.795
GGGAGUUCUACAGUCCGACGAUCGUCCUGUGCUACACAUCGUAUGUACCGAAUCGGGUUUUUUUGGGUGGGAAAAAAAGGGAAAGUAUUAUGUUACGCCGUUCGGAUCUGCACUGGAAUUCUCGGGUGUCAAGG,-0.0755
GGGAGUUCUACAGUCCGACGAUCAAGUCCUGUGCUACACAUCGUAUGUACCGAAUCGGAAAAAAAGGUUUUUGGUUUGGAAAGUAUUAUGUUACGCCGUUCGGAUCUGCACUUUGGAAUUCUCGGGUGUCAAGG,-1.38
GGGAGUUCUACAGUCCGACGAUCCCUGUGCUACACAUCGUAUGUACCGAAUCGGCCCCCCCGGGCCCCCCCGGCCCCCCCGGGGAAAGUAUUAUGUUACGCCGUUCGGAUCUGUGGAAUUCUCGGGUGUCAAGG,-0.3
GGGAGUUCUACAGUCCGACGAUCUAGUUUAUGCCAACGUGACUUCAUUCAUACAGAUGAACCAAGGAUCGGGAUAGCAGUAUAAAAUUAGAAUCAAGACAGCUGACUGCUCAGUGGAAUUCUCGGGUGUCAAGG,-2.17
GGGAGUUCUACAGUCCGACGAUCUUCCUCAAGUCCUGUGCUACACAUCGUAUGUACCGAAUCGGUGGUGGUGGAAAGUAUUAUGUUACGCCGUUCGGAUCUGCACUUCCAGCAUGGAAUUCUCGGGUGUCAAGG,-0.306
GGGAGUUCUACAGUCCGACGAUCCCUGUGCUACACAUCGUAUGUACCGAAUCGGGGUUUUUUUGGGGAAAAAAAGGGGUGGGGAAAGUAUUAUGUUACGCCGUUCGGAUCUGCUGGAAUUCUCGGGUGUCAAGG,0.438
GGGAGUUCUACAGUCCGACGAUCCCUGUGCUACACAUCGUAUGUACCGAAUCGGGGUUUUUUUGGGGUUUUUUUGGGGAGGGGAAAGUAUUAUGUUACGCCGUUCGGAUCUGCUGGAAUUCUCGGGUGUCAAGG,0.439
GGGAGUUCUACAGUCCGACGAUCACCAUGCAGGUGGGCAUCUUUGGGAAGUGGGGCAAGGGGGGGAUAGGGAGGGGGGUAACACUUUGAGAACAGGUGGUCCCAGGUCGUUUCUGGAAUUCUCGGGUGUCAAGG,0.63
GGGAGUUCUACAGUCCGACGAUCGUCCUGUGCUACACAUCGUAUGUACCGAAUCGGGAAAAAAGGAAAAAAGGGAAAAAAGGAAAGUAUUAUGUUACGCCGUUCGGAUCUGCAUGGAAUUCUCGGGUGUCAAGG,-0.661
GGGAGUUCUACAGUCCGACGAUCCUCAAGUCCUGUGCUACACAUCGUAUGUACCGAAUCGGAAAAAGGUGGAAAGGAAAGUAUUAUGUUACGCCGUUCGGAUCUGCACUUCCAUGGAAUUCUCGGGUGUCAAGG,-0.241
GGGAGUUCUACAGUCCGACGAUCAGUCCUGUGCUACACAUCGUAUGUACCGAAUCGGUUUUUGGUUUUUGGGGUUUUUGGGAAAGUAUUAUGUUACGCCGUUCGGAUCUGCACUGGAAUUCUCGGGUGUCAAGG,-0.428
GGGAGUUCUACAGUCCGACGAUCGCAGGAAGUAAAAACAAAUGGAAAUGCUUCGGAUAGUGACAGGGGUGGGGGUUGCUAAGGAAAGGGUGGGAUGGGAGUGGGUAAAGAGUUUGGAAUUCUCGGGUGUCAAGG,0.253

# Set 3
# Target: Histone acetyltransferase KAT6A, winged helix 2, GST fusion (KAT6A, Homo sapiens, UniProt Q92794, residues 85-181)
# Method: protein binding microarray
# Form: double-stranded DNA, one strand shown
# Sample: in vitro
# Concentration: not given
# Setting: 8-mer, flanks averaged, mean of 2 arrays, mostly near background
# Relative to: not given
# Direction: higher = stronger binding
# Construct (chain): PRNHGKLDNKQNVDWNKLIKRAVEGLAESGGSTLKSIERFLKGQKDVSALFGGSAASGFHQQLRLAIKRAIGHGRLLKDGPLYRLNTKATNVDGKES
Sequence,E-score
AAGGCGCC,0.0763
GGGGGCAC,0.0456
ATTCATAA,-0.0692
AAGCCCAT,-0.189
AGGAGCTA,-0.139
AAATAGGT,-0.0844
CCGAAAAC,0.0616
CTTGGTCA,0.0793
AGACTGGG,0.0272
TACACTAA,-0.133
GGAGAATA,-0.00884
CCGTTCTC,-0.0952
ATCCGGGC,0.193
CTCAGTAA,-0.038
AGTACGAG,-0.135
TTCGGAAA,0.185
ATTGGGTG,-0.0583
GGACCACA,0.0521
CGGGGACG,-0.0142
GGTCGTTA,-0.093
AAGAAACC,0.0873
AAGTCGTC,-0.179
CCCTGTAA,-0.0796
GCCAGACA,0.0311
AAAAACCT,0.162

# Set 4
# Target: RING finger protein unkempt homolog, zinc fingers 1-6, SBP tag (UNK, Homo sapiens, UniProt Q9C0B0, residues 30-357)
# Sequence of UniProt Q9C0B0 (30-357, looked up): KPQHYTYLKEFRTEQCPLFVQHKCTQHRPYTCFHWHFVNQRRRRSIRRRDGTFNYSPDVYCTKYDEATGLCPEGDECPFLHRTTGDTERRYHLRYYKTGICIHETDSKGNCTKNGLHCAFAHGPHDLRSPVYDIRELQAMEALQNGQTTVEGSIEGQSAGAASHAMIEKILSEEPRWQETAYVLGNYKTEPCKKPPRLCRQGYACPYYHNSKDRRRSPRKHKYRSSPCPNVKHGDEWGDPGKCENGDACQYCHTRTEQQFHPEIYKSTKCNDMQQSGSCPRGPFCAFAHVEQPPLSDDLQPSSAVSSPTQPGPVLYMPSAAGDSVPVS
# Method: RNA Bind-n-Seq
# Form: RNA
# Sample: in vitro
# Concentration: 100 nM
# Setting: RNA with constant flanks, vertebrate orthologous sites, ends assumed
# Relative to: input RNA pool
# Direction: higher = stronger binding
Sequence,bound/input enrichment [ratio]
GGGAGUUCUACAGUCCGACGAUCAAGAAUGAAUAGUAUUAAAGAAACAUUCUCGUCUUCCUUUACCUUUAAUCCCCUAAUACCUAGUCUACUUUUUAAAUUUUCAGACUUCACUGCUUUUUGAAUUCAUAAUUCUAAUUUUCACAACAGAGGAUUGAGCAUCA,3.12
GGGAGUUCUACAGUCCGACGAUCUAUCUUUAGGAUGAAGCUCUUACAUCAGGUGUCACGAGUCUGGAGAACAGAUGGGUUGACUAGUUGUGUUUAUAAAUUACUCUCUGUGGAUUACAAUCCUUUAUAUAUCAACAUCACAGUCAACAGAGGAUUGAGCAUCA,0.544
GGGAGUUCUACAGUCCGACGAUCCUCCCCGUUACCCCUAAGGUAGGACUUUUUAAAACUGUGUCGCCACCACUUCCAAAAAUUUAGCAAUAUUGGAAGAAAAUGCUAAUAAAGUAAAAAAUUUGCUUGCUGUUUUGGAAACCACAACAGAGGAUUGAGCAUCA,0.469
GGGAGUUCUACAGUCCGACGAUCGAUCAUUUUUUUAUUUCUUGUAUACAUGAUCUAGUCCUCUUGUUUUCUUACACGGUUGUUUGUCAGUAUGUCUGUCACAUUUCCUUCUCAGGCGAAGGGCUAGAGUUUUCAAAACACAAACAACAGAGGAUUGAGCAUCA,0.527
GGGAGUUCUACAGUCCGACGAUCGUUGCGAUCCCUUCAAUAUACACAGAAAACUAUCAAAGAAAAACUUGAGAGCAAUUGACUUGGAUGAUGCAACUUUUCUAAGUGCCAAGUUUGGAAGGCAGUUUGUACCUGGUUGGAAGCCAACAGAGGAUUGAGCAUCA,0.341
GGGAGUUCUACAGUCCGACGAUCUGAAAGUUACAGACAAGAGUCUGAAAACAGAAAUACAGGGUCUUGGUUAUCAUCAUCUUUAAGGAACAGAUGUACACCACUGUUCUCUAGAAGGAGGAGAGAAGGAAGAGAUGAAUCUGCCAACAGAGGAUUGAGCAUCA,0.418
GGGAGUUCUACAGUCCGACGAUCAGGGAGAAGAGUUCACAAACUCAAAGGGAAACUAUUAAAGAAUUCCUAAUAGUUAAAAGCUAGGAAAGAUUAGGACAACUUUACAAAUGAGCAAUUAAAAAGAAAAAGGCUACGGGAACCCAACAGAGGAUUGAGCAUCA,1.07
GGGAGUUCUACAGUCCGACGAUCAAUUUUUUAAAGUUUUUUAAUUUAAUUUUUCCUUUUGGGGGUAAAGUUUGCUCUACCAAAUAGUGAUCGUAACAAAUUGAUCUGUUUUGGAUGUUGCUAUAGUGACAUGCAGUUAUACAUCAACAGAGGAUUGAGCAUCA,0.376
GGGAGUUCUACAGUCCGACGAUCUUACAGUCAUUGAUGGACUCUAUUUUUUUAUUAUUACUUGGAACUUGGUCGUUUUUAUACUAGCAAGAUGUCUUGUUUUAAUUUGUGUUUUUUGGGGGGGAGGGAGUGAAUUUGCUCAUUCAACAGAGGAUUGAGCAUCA,1.53
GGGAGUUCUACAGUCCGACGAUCGUCCUUUCACGCUGUCCCUGGCCAGGGUCGAGGACCGGGUGUCUCACUGAGGACCUGCAUUUCAAACAGUUUUUUAAAUUGUCGUACAGGAAGAGAUGUGAGGAAAACAGCAUCUCAGAGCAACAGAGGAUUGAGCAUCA,0.399
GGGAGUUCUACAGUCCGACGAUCAGUAGUUUUAAGCUUGUUUGCACAGUUCUUUUUUUCCAUUGGAAAUGGAAUUCAUUGCCUUAGGUCUUUUUAAAUAGUGUAUUAUCGUUGGGGCUGGCUCUGUGCUUGAAAACCAGUUUACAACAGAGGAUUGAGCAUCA,2.89
